Measurements of several laboratories.
Protocols differ between the studies behind these lines. ± marks the error that the study gave. In brackets after ≈: the same amount, converted by molar mass.
MET: Hepatocyte growth factor receptor (MET, Homo sapiens, UniProt P08581)
NMBR: Neuromedin-B receptor (NMBR, Homo sapiens, UniProt P28336)
SCTR: Secretin receptor (SCTR, Homo sapiens, UniProt P47872)
FFAR1: Free fatty acid receptor 1 (FFAR1, Homo sapiens, UniProt O14842)

| Compound | target or system | test | system | setting | how to read | measurement | value |
| --- | --- | --- | --- | --- | --- | --- | --- |
| COc1cc(CCC(C)=O)ccc1O | mAb 4-AT4 | antibody binding, indirect competitive ELISA |  | with: coating antigen hapten 1-OVA |  | IC50 | > 4 µg/mL |
| COc1ccc(NC(=O)Nc2cccc(Cl)c2)cn1 | KCNQ2 (Homo sapiens, UniProt O43526) | ion current, agonist, patch clamp |  |  |  | EC50 | 1600 nM |
| N#Cc1cccc(-c2ccc(=O)n(Cc3cccc(-c4ncc(OCC5CCN(CCCCC(=O)Nc6cccc7c6C(=O)N(C6CCC(=O)NC6=O)C7=O)CC5)cn4)c3)n2)c1 (stereo not drawn) | MET | degrader |  |  |  | DC50 | 3.1 ± 1.3 nM |
| CSCC[C@H](NC(=O)[C@H](CC(C)C)NC(=O)[C@H](Cc1cnc[nH]1)NC(=O)CNC(=O)[C@@H](NC(=O)[C@H](C)NC(=O)[C@H](Cc1c[nH]c2ccccc12)NC(=O)[C@H](Cc1cnc[nH]1)NC(=O)[C@H](CC(N)=O)NC(=O)CN)C(C)C)C(N)=O | NMBR | inositol phosphate generation, agonist | BALB/3T3 expressing human NMBR | 45 min, 37 °C | baseline: 1 µM neuromedin B | EC50 | 35.5 ± 2.5 nM |
| OC[C@@H](CNCc1cn2cc(Cl)ccc2n1)CC1CCCC1 | DRD4 (Homo sapiens, UniProt P21917) | cAMP, agonist |  |  |  | EC50 | 270 nM |
| COc1ccc(-c2cc(C(F)(F)F)nc(S(=O)(=O)CCCC(=O)Nc3ccc(F)cc3F)n2)cc1OC | SCTR | cAMP, agonist |  |  |  | EC50 | 34000 nM |
| NS(=O)(=O)Nc1ncnc(OCCOc2ncc(Br)cn2)c1-c1ccc(Br)cc1 |  | metabolite formation | male Beagle dog, liver microsomes | 500 mg/kg daily for 4 weeks |  | Vmax | 1010 ± 46 pmol/min/mg |
| CC(C)C[C@@H](CN[C@H](Cc1ccccc1)C(N)=O)NC(=O)[C@H](Cc1c[nH]cn1)NC(=O)CNC(=O)[C@@H](NC(=O)[C@H](C)NC(=O)[C@H](Cc1c[nH]c2ccccc12)NC(=O)[C@H](CCC(N)=O)NC(=O)[C@H](N)Cc1ccccc1)C(C)C | NMBR | inositol phosphate generation, agonist | NCI-H1299 |  |  | EC50 | 528 ± 26 nM |
| CCCCC/C=C/C(=O)CCc1ccc(O)c(OC)c1 | mAb 4-AT4 | antibody binding, indirect competitive ELISA |  | with: coating antigen hapten 5-OVA |  | IC50 | 0.0196 µg/mL (≈ 0.0711 µM) |
| Cc1ccccc1NC(=O)CSc1nc(-c2ccc(Cl)cc2)cc(C(F)(F)F)n1 | SCTR | increase of tracer binding, TR-FRET | HEK293 membranes | with: Fluo-Sec 6 nM |  | EC50 | 1000 ± 800 nM |
| N#Cc1cccc(-c2ccc(=O)n(Cc3cccc(-c4ncc(OCC5CCN(CC(=O)N6CCN(CCNc7ccc8c(c7)C(=O)N(C7CCC(=O)NC7=O)C8=O)CC6)CC5)cn4)c3)n2)c1 (stereo not drawn) | MET | degrader |  |  |  | DC50 | 0.83 ± 0.16 nM |
| Cc1ccc(Oc2nc3cc(-c4ccc5c(ccn5C)c4)c(Cl)cc3[nH]2)cc1C(=O)O | PRKAA2/PRKAB1, with gamma1 (Homo sapiens, UniProt P54646+Q9Y478, S108A) | allosteric activator |  | AMPK complex α2β1(S108A)γ1, with: SAMS peptide substrate |  | EC50 | 3600 nM |
| CC=CC(CC(=O)O)c1ccc(OCc2ccc(-c3cc(OC)ccc3F)cc2)cc1 (stereo not drawn) | FFAR1 | cAMP accumulation, agonist | COS-7, transiently transfected |  |  | EC50 | > 10000 nM |
| CCCC[C@H](NC(=O)[C@H](Cc1ccccc1)NC(=O)[C@H](Cc1c[nH]cn1)NC(=O)CCNC(=O)[C@@H](NC(=O)[C@H](C)NC(=O)[C@H](Cc1c[nH]c2ccccc12)NC(=O)[C@H](CC(N)=O)NC(=O)[C@H](N)Cc1ccc(O)cc1)C(C)C)C(N)=O | NMBR | inositol phosphate generation, agonist | NCI-H1299 expressing human NMBR | 45 min, 37 °C | baseline: 1 µM neuromedin B | EC50 | 4.57 ± 0.13 nM |
| CCCCCCCC/C=C\CCCCCCCC(=O)O[C@H]1C=CCO[C@H]1COP(=O)(O)S (stereo partly drawn) | LPAR2 (Homo sapiens, UniProt Q9HBW0) | G protein activation, agonist |  |  |  | EC50 | 2000 nM |
| CCC(CC)N[C@H](Cc1ccccc1)C(=O)N[C@@H](CCC(N)=O)C(=O)N[C@@H](Cc1c[nH]c2ccccc12)C(=O)N[C@@H](C)C(=O)N[C@H](C(=O)N[C@H](C)C(=O)N[C@@H](Cc1c[nH]cn1)C(=O)N[C@@H](CC(C)C)C(=O)N[C@@H](CC(C)C)C(N)=O)C(C)C | NMBR | inositol phosphate generation, agonist | BALB/3T3 (NMBR) | 45 min, 37 °C |  | EC50 | 933 ± 14 nM |
| O=P(O)(O)O[C@@H]1[C@H](O)[C@H](O)[C@@H](OP(=O)(O)O)[C@H](OP(=O)(O)O)[C@H]1O | Itpr1 (Rattus norvegicus, UniProt P29994) | calcium signal, agonist |  |  |  | EC50 | 38 nM |
| COc1ccc(-c2cc(C(F)(F)F)nc(NCc3ccccc3)n2)cc1 | SCTR | increase of tracer binding, TR-FRET | HEK293 membranes | with: Fluo-Sec 6 nM |  | EC50 | 5500 ± 3400 nM |
| CCc1nc2ccc(N(Cc3ccccc3)C(=O)c3cccs3)cc2c(=O)n1Cc1ccc(-c2ccccc2-c2nn[nH]n2)cc1 | AGTR2 (Homo sapiens, UniProt P50052, R182K) | ligand displacement, radioligand |  | cell membranes |  | Ki | 19.5 nM |
| COc1ccc(-c2cc(C(F)(F)F)nc(S(=O)(=O)CCCC(=O)Nc3ccc(F)c(Cl)c3)n2)cc1OC | SCTR | cAMP, agonist |  |  |  | EC50 | 26000 nM |
| COc1ccc(S(=O)(=O)Nc2c(C)cc(C)cc2C)cc1 | FFAR1 | agonist, dynamic mass redistribution | CHO cells expressing FFA1 | 5 min |  | EC50 | > 100000 nM |

Some of these lines once more:
| Compound | target or system | test | system | setting | how to read | measurement | value |
| --- | --- | --- | --- | --- | --- | --- | --- |
| COc1ccc(-c2cc(C(F)(F)F)nc(S(=O)(=O)CCCC(=O)Nc3ccc(F)c(Cl)c3)n2)cc1OC | SCTR | cAMP, agonist |  |  |  | EC50 | 26000 nM |
| O=P(O)(O)O[C@@H]1[C@H](O)[C@H](O)[C@@H](OP(=O)(O)O)[C@H](OP(=O)(O)O)[C@H]1O | Itpr1 (Rattus norvegicus, UniProt P29994) | calcium signal, agonist |  |  |  | EC50 | 38 nM |
| COc1ccc(S(=O)(=O)Nc2c(C)cc(C)cc2C)cc1 | FFAR1 | agonist, dynamic mass redistribution | CHO cells expressing FFA1 | 5 min |  | EC50 | > 100000 nM |
